Published values gathered from unrelated publications.
Compare with care: the assays were run in different laboratories. ± gives the spread as reported.
Organism: Plasmodium berghei

For `CCCN(CCC)CC1=C(O)C(=O)c2ccccc2C1=O`, the parasitaemia inhibition was 63% (NK65, mouse; oral, 100 mg/kg for 3 days, day 5 post-infection).
The IC50 of `O=C1C2=C(Nc3ccccc3SC2c2ccc(F)cc2)c2ccccc21` (racemic) is reported as 0.391 ± 0.028 µM (liver stage growth; HepG2, ANKA, luciferase-expressing; 45 h post-infection).
The IC50 of `O=C(C1CCN(c2nnnn2-c2ccccc2)CC1)N1CCCc2ccccc21` is reported as 0.09 µM (parasite growth, luciferase; 48 h, liver stage).
With `CCN(CC)c1ccc2nc3c4ccccc4/c(=N/c4ccncc4)cc-3oc2c1` the ED90 was 20 mg/kg (parasitemia; mouse; oral, single dose; relative to: untreated).
The IC50 of `CC(C)C(C(=O)N[C@@H](Cc1ccccc1)[C@H](O)CN1CCN(Cc2ccc(Br)cc2)CC1)N1C(=O)c2ccccc2C1=O` (stereo partly drawn) is reported as 30 µM (parasite growth; HepG2; liver stage).
For `O=C1C(O)=C(CN2CC3CCC2CC3)C(=O)c2ccccc21`, the parasitaemia inhibition was 63% (NK65, mouse; oral, 100 mg/kg for 3 days, day 5 post-infection).
For `COc1ccc(S(=O)(=O)NCc2c[nH]nc2-c2cccs2)cc1`, the EC50 was 0.108 ± 0.021 µM (liver stage multiplication; HepG2, sporozoites; added before invasion).
`CC(C)(C)OC(=O)N[C@H](Cc1ccccc1)[C@@H](O)CN1CCC(N2CCCCC2)CC1` has an inhibition of 44% (parasite growth; HepG2; 1 µM, liver stage).
The IC50 of `O=C1C2=C(Nc3ccccc3SC2c2ccsc2)c2ccccc21` (racemic) is reported as 0.151 ± 0.042 µM (liver stage growth; HepG2, ANKA, luciferase-expressing; 45 h post-infection).

A few entries again:
For `COc1ccc(S(=O)(=O)NCc2c[nH]nc2-c2cccs2)cc1`, the EC50 was 0.108 ± 0.021 µM (liver stage multiplication; HepG2, sporozoites; added before invasion).
